# Results collected from several papers.
# Each line is one published result; not all experiments were run side by side. Numbers after ± are the reported error.
# Matrix: plasma
SMILES,test system,conditions,half-life
CCc1cc(Nc2nc(-c3ccc(-n4cnc(C)c4)c(F)c3)cs2)c(C)cc1C,human,"oral, 400 mg, multiple doses, once daily",10.6 h
CC(=O)N[C@H](CSSC[C@H](N)C(=O)O)C(=O)N[C@H](C)C(=O)N[C@H](CCCNC(=N)N)C(=O)N[C@H](CCCNC(=N)N)C(=O)N[C@H](CCCNC(=N)N)C(=O)N[C@H](C)C(=O)N[C@H](CCCNC(=N)N)C(N)=O,male human,"intravenous, 5 mg, single dose, healthy volunteers",18.5 h
Cc1ccc(OCC(=O)N(Cc2cccs2)c2ccn[nH]2)cc1,"beagle dog, male","oral gavage, 30 mg/kg",4.47 h
CC(C)[C@H](NC(=O)CNC(=O)[C@H](CCC(N)=O)NC(=O)[C@H](C)N)C(=O)O,human male,"intravenous infusion, 10 mg/kg single, 15 min infusion, geometric mean",0.04 h
[2H]C([2H])([2H])NC(=O)c1ccc(N2C(=S)N(c3ccc(C#N)c(C(F)(F)F)c3)C(=O)C2(C)C)cc1F,male human,"oral, 80 mg, single dose, fasted",115 h
CN1CCC[C@]1(C)/C=C/S(=O)(=O)NC(=O)Nc1c2c(cc3c1CCC3)CCC2,human,"oral, 100 mg, single dose, healthy volunteers",6.3 h
CC(C)(O)c1ncc([S@](N)(=O)=NC(=O)Nc2c3c(cc4c2CCC4)CCC3)s1,human,"oral, 30 mg, single dose, fasted, healthy volunteers",16.4 h
O=C(CCc1ccc(CNC(C(=O)OC2CCCC2)C2CCCCC2)cn1)NO (stereo not shown),human,"oral, 40 mg, multiple doses, once daily, patients",0.408 h
CC12CC(c3ccc(S(C)(=O)=O)cc3)C3=C4CCC(=O)C=C4CCC3C1CCC2(O)C(F)(F)C(F)(F)F (stereo not shown),human,"oral, 5 mg, single dose, fasted",~32 h
CCCC[C@H](NC(C)=O)C(=O)N[C@H]1CC(=O)NCCCC[C@@H](C(=O)N[C@@H](C(=O)N2CCC[C@@H]2C(N)=O)C(C)C)NC(=O)[C@H](Cc2c[nH]c3ccccc23)NC(=O)[C@H](CCCN=C(N)N)NC(=O)[C@@H](Cc2ccc3ccccc3c2)NC(=O)[C@@H]2CCCN2C1=O,"Beagle dog, both sexes","subcutaneous, once daily, 0.75 mg/kg, day 28",2.9 ± 0.2 h

# For quick reference, copied from above:
SMILES,test system,conditions,half-life
CCc1cc(Nc2nc(-c3ccc(-n4cnc(C)c4)c(F)c3)cs2)c(C)cc1C,human,"oral, 400 mg, multiple doses, once daily",10.6 h
